Published values pooled from the literature.
Each line is one published result; not all experiments were run side by side. Values joined by “and” are separate records of one study, mostly repeats; a detail may differ. Numbers after ± are the reported error.

SMILES	cell line	test	test system	setting	how to read	viability
Cn1c(=O)c(F)c(Nc2ccc(I)cc2F)c2c(=O)n(C[C@@H](O)CO)cnc21	A-172	WST-8	–	1 µM, 25 h	–	93.2%
CC(C)n1ncc2c(C(=O)NCC3(C)CNC3)cc(C3CC3)nc21	Vero C1008	neutral red uptake	DMEM with 2% FBS	3.1 µM	relative to: positive control	100%
Cc1ccc(-c2ccc(CN3CCCC3c3ccc(N(C)C)cc3)o2)c([N+](=O)[O-])c1 (centres unmarked)	HEK-Blue IL-33	MTS	–	up to 333 µM, 20 h	–	no effect
COc1ccc(Cn2cc(CO[C@@H]3O[C@H]4[C@H](OC[C@H]4O)[C@H]3O)nn2)cc1	Huh-7	cytotoxicity, CellTiter-Glo	–	up to 30 µM, 72 h	–	not toxic
C=CC(=O)N1CCCN(C(=O)c2cc(Sc3cnc(NC(=O)C4CC4)s3)c(C)cc2OC)C[C@H]1C	human primary T cells	–	–	10 µM, six days, with: TCR stimulation	–	no effect
O=C(C[C@@H](C(F)F)n1ccc(F)n1)N1CCC(O)(Cn2cnc3c(cnn3-c3ccc(F)cc3)c2=O)CC1	LNCaP	CCK-8	–	1.524 nM, 5 days	–	89.1% and 84%
COc1ccc(-c2ccc(CN3CCCC3c3ccc(N(C)C)cc3)o2)c([N+](=O)[O-])c1 (centres unmarked)	HEK-Blue IL-33	MTS	–	up to 333 µM, 20 h	–	no effect
CC(=O)Nc1cccc(-n2c(=O)n(C3CC3)c(=O)c3c(Nc4ccc(I)cc4F)n(C)c(=O)c(C)c32)c1	COLO 205	resazurin	–	concentration not given, 72 h, unit not given	relative to: DMSO	0.975 and 0.493 and 0.18 and 0.277 and 0.222 and 0.218
COc1cc2c(NC3CCN(CCCC(=O)NCCCCCCCCCCCC(=O)N[C@H](C(=O)N4C[C@H](O)C[C@H]4C(=O)NCc4ccc(-c5scnc5C)cc4)C(C)(C)C)CC3)nc(N3CCC(F)(F)CC3)nc2cc1OCCCN1CCCC1	PNT2	CCK-8	–	concentration not given, 5 days	–	not toxic
O=c1[nH]cc(F)c(=O)[nH]1	Huh-7	CCK-8	–	50 µM, 72 (unit not given)	relative to: untreated control	44.7 ± 0.74%
CC(=O)Nc1cccc(-n2c(=O)n(C3CC3)c(=O)c3c(Nc4ccc(I)cc4F)n(C)c(=O)c(C)c32)c1	A-172	WST-8	–	1 µM, 25 h	–	94.5%

A few entries again:
SMILES	cell line	test	test system	setting	how to read	viability
COc1ccc(-c2ccc(CN3CCCC3c3ccc(N(C)C)cc3)o2)c([N+](=O)[O-])c1 (centres unmarked)	HEK-Blue IL-33	MTS	–	up to 333 µM, 20 h	–	no effect
